Measured values pooled from the literature.
Compare with care: the assays were run in different laboratories. ≈ marks a conversion by molar mass, not a printed value.
CAMK1G: Calcium/calmodulin-dependent protein kinase type 1G (CAMK1G, Homo sapiens, UniProt Q96NX5)
UniProt Q96NX5, sequence (whole entry, looked up): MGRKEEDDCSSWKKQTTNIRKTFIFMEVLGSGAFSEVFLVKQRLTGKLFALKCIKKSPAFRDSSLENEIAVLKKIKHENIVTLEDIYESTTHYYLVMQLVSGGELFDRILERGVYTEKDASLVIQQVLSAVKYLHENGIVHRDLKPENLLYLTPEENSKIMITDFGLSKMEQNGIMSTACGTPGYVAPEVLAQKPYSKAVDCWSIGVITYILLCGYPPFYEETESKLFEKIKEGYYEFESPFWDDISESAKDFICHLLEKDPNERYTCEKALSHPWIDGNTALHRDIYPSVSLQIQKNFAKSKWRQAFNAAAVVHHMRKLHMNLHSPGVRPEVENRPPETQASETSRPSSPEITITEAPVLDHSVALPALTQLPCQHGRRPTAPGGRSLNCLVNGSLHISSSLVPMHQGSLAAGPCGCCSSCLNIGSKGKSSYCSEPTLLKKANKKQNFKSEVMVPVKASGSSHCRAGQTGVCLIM
UniProt Q9NYL2, sequence (whole entry, looked up): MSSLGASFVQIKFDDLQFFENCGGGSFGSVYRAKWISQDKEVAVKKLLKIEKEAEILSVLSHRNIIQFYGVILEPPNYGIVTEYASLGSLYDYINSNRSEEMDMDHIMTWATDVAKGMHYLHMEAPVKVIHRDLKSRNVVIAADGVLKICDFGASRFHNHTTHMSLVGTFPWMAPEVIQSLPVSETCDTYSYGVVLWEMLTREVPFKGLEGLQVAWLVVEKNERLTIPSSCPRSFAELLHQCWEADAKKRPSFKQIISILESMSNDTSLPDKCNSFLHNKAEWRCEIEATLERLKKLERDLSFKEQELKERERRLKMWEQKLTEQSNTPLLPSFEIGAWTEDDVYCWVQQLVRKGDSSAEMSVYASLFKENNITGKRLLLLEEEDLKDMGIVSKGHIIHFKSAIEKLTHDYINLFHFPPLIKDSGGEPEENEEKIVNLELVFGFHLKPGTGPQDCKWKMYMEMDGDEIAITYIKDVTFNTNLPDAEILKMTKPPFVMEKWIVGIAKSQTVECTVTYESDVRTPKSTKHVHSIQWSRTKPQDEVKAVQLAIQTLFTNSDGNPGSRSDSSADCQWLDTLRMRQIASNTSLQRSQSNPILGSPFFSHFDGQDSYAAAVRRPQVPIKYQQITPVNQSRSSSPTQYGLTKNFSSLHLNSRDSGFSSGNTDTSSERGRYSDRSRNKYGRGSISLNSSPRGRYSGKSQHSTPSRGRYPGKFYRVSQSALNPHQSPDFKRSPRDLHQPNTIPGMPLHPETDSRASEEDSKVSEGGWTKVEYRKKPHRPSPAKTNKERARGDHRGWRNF
UniProt Q59H18, sequence (whole entry, looked up): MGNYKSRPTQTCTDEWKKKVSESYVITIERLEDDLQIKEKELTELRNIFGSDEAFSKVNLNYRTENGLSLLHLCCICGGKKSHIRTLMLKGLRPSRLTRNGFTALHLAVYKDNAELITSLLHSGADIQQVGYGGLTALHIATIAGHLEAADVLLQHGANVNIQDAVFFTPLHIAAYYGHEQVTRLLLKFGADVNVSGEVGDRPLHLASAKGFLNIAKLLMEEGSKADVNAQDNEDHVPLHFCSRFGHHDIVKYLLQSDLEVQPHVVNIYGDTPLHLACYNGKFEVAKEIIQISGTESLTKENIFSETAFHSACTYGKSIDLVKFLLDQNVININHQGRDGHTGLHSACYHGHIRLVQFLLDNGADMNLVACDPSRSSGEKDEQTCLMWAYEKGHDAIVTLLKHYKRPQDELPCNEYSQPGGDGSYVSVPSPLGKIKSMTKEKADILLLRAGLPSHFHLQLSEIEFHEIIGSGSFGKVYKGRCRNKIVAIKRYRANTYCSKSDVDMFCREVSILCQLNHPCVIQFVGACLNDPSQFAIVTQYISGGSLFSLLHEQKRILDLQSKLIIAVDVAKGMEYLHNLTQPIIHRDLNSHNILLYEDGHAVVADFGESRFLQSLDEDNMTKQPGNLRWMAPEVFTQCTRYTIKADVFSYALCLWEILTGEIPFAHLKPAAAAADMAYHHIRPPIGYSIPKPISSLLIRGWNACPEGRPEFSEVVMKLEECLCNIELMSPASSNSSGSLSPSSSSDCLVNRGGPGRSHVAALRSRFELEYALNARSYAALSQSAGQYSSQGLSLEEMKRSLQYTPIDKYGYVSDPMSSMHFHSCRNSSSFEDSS

With `CN[C@H](CC(C)C)C(=O)N[C@H]1C(=O)N[C@@H](CC(N)=O)C(=O)N[C@H]2C(=O)NC3C(=O)N[C@H](C(=O)N[C@H](C(=O)NCCC[N+](C)(C)C)c4cc(O)cc(O)c4-c4cc3ccc4O)[C@H](O)c3ccc(c(Cl)c3)Oc3cc2cc(c3OC2OC(CO)C(O)[C@H](O)[C@@H]2O[C@H]2CC(C)(NCc3ccc(-c4ccc(Cl)cc4)cc3)[C@H](O)[C@H](C)O2)Oc2ccc(cc2Cl)[C@H]1O` (stereo partly drawn) the Vd was 1.04 L/kg (mouse, plasma; intravenous, 50 mg/kg).
For `Nc1ncc(-c2nc(N3CCOCC3)nc(N3CCOCC3)n2)c(C(F)F)n1`, the remaining binding was 65% (CAMK1G; binding, competition with immobilised ligand; 10 µM).
For `CC(C)C[C@H]1NC(=O)[C@@H](N)CSSC[C@@H](C(=O)O)NC(=O)[C@H](Cc2ccccc2)NC(=O)[C@H](C)NC(=O)[C@H]([C@@H](C)O)NC(=O)[C@H]2CCCN2C(=O)[C@@H]2CCCN2C(=O)[C@H](C(C)C)NC(=O)[C@H](CCC(=O)O)NC1=O`, the solubility was 708 µM (≈ 763 µg/mL) (aqueous buffer; 18 h, pH 7.4).
With `Cc1ccccc1C(=O)NN=Cc1ccc(O)c(Br)c1` the bioavailability was 107% (mouse, plasma; intraperitoneal, 0.8 mg/kg).
`CC(C)(N)CNC(=O)O[C@@H]1CCC[C@]2(C1)OOC1(O2)C2CC3CC(C2)CC1C3` (stereo partly drawn) gave a Tmax of 1 h (male CD-1 mouse, plasma; oral, 10 mg/kg).
The Vd of `CCCC[C@@H]1NC(=O)[C@H](Cc2ccc(O)cc2)NC(=O)[C@@H]2CCCN2C(=O)[C@H](CC(=O)O)NC(=O)[C@H](C)NC(=O)[C@H](Cc2ccccc2)NC(=O)[C@@H]2CSCCC(=O)N3CN(CN(C3)C(=O)CCSC[C@@H](C(=O)N[C@@H](C)C(N)=O)NC1=O)C(=O)CCSC[C@H](NC(=O)[C@H](C)NC(C)=O)C(=O)N[C@@H]([C@@H](C)CC)C(=O)N[C@@H](CCC(=O)O)C(=O)N[C@@H](CCC(=O)O)C(=O)N[C@H](CCCCNC(=O)CCc1cn(CCOCCOCCOCCN(CCOCCOCCOCCC(=O)N[C@H]3CSCCC(=O)N4CN5CN(C4)C(=O)CCSC[C@H](NC(=O)[C@@H](CC(=O)O)NC(=O)[C@H](Cc4cccc6ccccc46)NC(=O)[C@@H]4CCCN4C3=O)C(=O)N[C@@H](CCSC)C(=O)N[C@@H](CCCCNC(=N)N)C(=O)N[C@@H](CC(=O)O)C(=O)N[C@@H](Cc3c[nH]c4ccccc34)C(=O)N[C@@H](CO)C(=O)N[C@@H]([C@@H](C)O)C(=O)N3CCC[C@H]3C(=O)N3C[C@H](O)C[C@H]3C(=O)N[C@@H](Cc3c[nH]c4ccccc34)C(=O)N[C@H](C(N)=O)CSCCC5=O)CCOCCOCCOCCn3cc(CCC(=O)NCCCC[C@H]4NC(=O)[C@H](CCC(=O)O)NC(=O)[C@H](CCC(=O)O)NC(=O)[C@H]([C@@H](C)CC)NC(=O)[C@@H](NC(=O)[C@H](C)NC(C)=O)CSCCC(=O)N5CN6CN(C5)C(=O)CCSC[C@H](NC(=O)[C@H](Cc5ccc(O)cc5)NC(=O)[C@H](CCC(N)=O)NC4=O)C(=O)N[C@@H](Cc4ccccc4)C(=O)N[C@@H](C)C(=O)N[C@@H](CC(=O)O)C(=O)N4CCC[C@H]4C(=O)N[C@@H](Cc4ccc(O)cc4)C(=O)N[C@@H](CCCC)C(=O)N[C@H](C(=O)N[C@@H](C)C(N)=O)CSCCC6=O)nn3)nn1)C(=O)N[C@@H](CCC(N)=O)C(=O)N[C@@H](Cc1ccc(O)cc1)C(=O)N2` is reported as 0.59 L/kg (rat, plasma; intravenous, 2 mg/kg).
`[2H]c1c([2H])c([C@]2([2H])CCCN2C(=O)C(C)(C)Oc2ccc3cn[nH]c3c2)c([2H])c([2H])c1C([2H])([2H])[2H]` gave a remaining binding of 88% (MAP3K20 (Homo sapiens, UniProt Q9NYL2); binding, competition with immobilised ligand; 1 µM).
The thermodynamic solubility of `CC[C@H](C)[C@H]1C(=O)N[C@@H](Cc2ccc(O)cc2)C(=O)N2CCC[C@H]2C(=O)N[C@H]([C@H](C)O)C(=O)N[C@@H](CC(C)C)C(=O)N[C@@H](C(C)C)C(=O)N[C@@H](C)C(=O)N[C@@H](C)C(=O)N[C@@H](CO)C(=O)N[C@@H](CCC(=O)O)C(=O)N[C@H](CC(=O)O)C(=O)N[C@H](C(=O)O)CSSC[C@H](N)C(=O)N1C` is reported as 678 µM (≈ 947 µg/mL) (aqueous buffer; 18 h, pH 7.4).
For `CC(C)C[C@H](NC(=O)[C@H](Cc1ccccc1)NC(=O)[C@H](Cc1ccccc1)NC(=O)Cc1ccc(-c2ccccc2)cc1)C(=O)N[C@@H](CCCCN)C(=O)N[C@@H](CCCNC(=N)N)C(=O)N[C@H](C(=O)N[C@@H](Cc1c[nH]c2ccccc12)C(=O)N[C@@H](CCCCN)C(=O)N[C@@H](CCCNC(=N)N)C(=O)O)C(C)C`, the compound remaining was 38.4% (metabolic stability; rat, liver microsomes; 15 min).
With `Cc1nn(C)cc1-c1nc2c(N3CCN(Cc4ccc(Cl)cc4)CC3)c(Cl)cnc2[nH]1` the remaining binding was 93% (TNNI3K (Homo sapiens, UniProt Q59H18); binding, competition with immobilised ligand; 1 µM).
`COc1ncccc1-c1cnn2ccc(N3CCN(C(=O)OC(C)C)CC3)nc12` has a remaining binding of 82% (CAMK1G; binding, competition with immobilised ligand; 1 µM).
With `CCCC[C@H](NC(C)=O)C(=O)N[C@H]1CC(=O)NCCCC[C@@H](C(=O)N2CCC[C@@H]2C(=O)N[C@@H](C(=O)N2CCC[C@@H]2C(N)=O)C(C)C)NC(=O)[C@H](Cc2c[nH]c3ccccc23)NC(=O)[C@H](CCCNC(=N)N)NC(=O)[C@@H](Cc2ccccc2)NC(=O)[C@@H]2CCCN2C1=O` the half-life was 2.48 h (male cynomolgus monkey, plasma; subcutaneous, 3 mg/kg).
For `N.N.[Cl][Pt][Cl]`, the IC50 was 760 nM (Z-138; cell growth or viability, ATP luminescence; 72 h).
`CC(C)C[C@H]1C(=O)N2CCC[C@H]2C(=O)N[C@@H](CC(N)=O)C(=O)N[C@H](Cc2ccc(O)cc2)C(=O)N[C@H]([C@H](C)O)C(=O)N[C@@H](Cc2ccc(O)cc2)C(=O)N[C@H](C(=O)O)CSSC[C@H](N)C(=O)N[C@@H](Cc2ccccc2)C(=O)N[C@@H](C(C)C)C(=O)N1C` gave a solubility of 759 µM (≈ 936 µg/mL) (aqueous buffer; 18 h, pH 7.4).
`N=c1c2c(-c3ccccc3)c(-c3ccccc3)n(Cc3ccccc3)c2ncn1[C@H]1CC[C@H](O)CC1` has a Cmax of 414 ng/mL (male cynomolgus monkey, plasma; oral, 1 mg/kg, single dose).
